Experimental data pooled from the literature.
Lines come from different studies, so protocols differ. “And” joins repeats or separate records; there may be more than shown. Numbers after ± are the reported error.
USP3 ZnF-UBD domain: Ubiquitin carboxyl-terminal hydrolase 3, ZnF-UBD domain (USP3, Homo sapiens, UniProt Q9Y6I4)
Sequence of UniProt Q9Y6I4 (whole entry, looked up): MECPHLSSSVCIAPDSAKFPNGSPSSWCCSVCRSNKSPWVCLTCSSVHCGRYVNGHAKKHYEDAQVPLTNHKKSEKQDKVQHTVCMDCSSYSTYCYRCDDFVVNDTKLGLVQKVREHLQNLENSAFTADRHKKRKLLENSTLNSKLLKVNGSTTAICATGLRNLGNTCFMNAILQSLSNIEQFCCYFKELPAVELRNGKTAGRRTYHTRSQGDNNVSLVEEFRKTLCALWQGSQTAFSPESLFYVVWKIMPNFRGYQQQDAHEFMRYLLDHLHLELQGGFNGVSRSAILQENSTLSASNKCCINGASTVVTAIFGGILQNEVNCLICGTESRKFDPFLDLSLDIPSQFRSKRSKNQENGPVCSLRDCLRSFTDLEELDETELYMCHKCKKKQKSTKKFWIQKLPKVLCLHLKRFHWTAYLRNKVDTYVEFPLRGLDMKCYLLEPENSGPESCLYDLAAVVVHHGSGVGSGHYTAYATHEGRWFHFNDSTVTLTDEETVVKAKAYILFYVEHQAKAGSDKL

CSCC[C@H](NC(=O)CN)C(=O)N[C@@H](CCCNC(=N)N)C(=O)N[C@@H](Cc1c[nH]c2ccccc12)C(=O)N[C@@H](CO)C(=O)N[C@@H](CCCNC(=N)N)C(=O)N[C@@H](CCCCN)C(=O)N[C@@H](CCSC)C(=O)N1CCC[C@H]1C(=O)N[C@@H](CS)C(=O)N[C@H](C(=O)N[C@@H](CO)C(N)=O)C(C)C  remaining activity (12G5 competition, SUP-T1 cells; human plasma; concentration not given, 2 h): 43 ± 3%
COc1ccnc(C(N)=O)c1O  KFoc (soil adsorption; clay soil; pH 7.6, organic carbon 1.7 %): 669 mL/g
Cc1c(C(=O)O)ccc2c3n(nc12)[C@@H]1[C@H](C3)N(CC2CC2)[C@@]2(C(=O)Nc3cc(Cl)ccc32)[C@H]1c1cccc(Cl)c1F  unbound AUC(0-inf) (CD1 mouse, plasma; po, 1.5 mg/kg): 0.128 µM·h
Cl.N=C(CC(O)c1cc2c(F)cc(F)cc2c2cc(C(F)(F)F)ccc12)Nc1ccc(Br)cc1 (stereo not shown)  degradation (human plasma; 50 ng/mL, 24 h, 37 °C): 46.5%
Cc1ccc(Sc2ccccc2N2CCNCC2)c(C)c1  participants with TEAE (item: AST increased; healthy adult men; oral, 20 mg daily, 12 days): 0%
Cc1cc(Nc2ccc(S(F)(F)(F)(F)F)cc2)n2nc(C(C)(F)F)nc2n1  adverse event Thrombocytopenia (Plasmodium falciparum malaria patients; oral, 400 mg): 0%
CNCc1ccc(-c2[nH]c3cc(F)cc4c3c2CCNC4=O)cc1  abdominal pain incidence (patients; oral, 480 mg twice daily, all grades): 33.3%
CCOc1c([C@H](C)n2nc(C)c3c(N)ncnc32)cc(Cl)c(F)c1[C@@H]1CNC(=O)C1  ECG observations (item: QTcF change ≤30 ms; previously treated B-cell malignancy; oral, 45 mg once daily, overall population; baseline: baseline): 100%
CC(C)(C(=O)N1CCOc2c(C#N)cncc2C1)C(F)F  subjects with TEAE (item: skin irritation; healthy humans, both sexes; oral, 40 mg single dose): 0%
CN1CCN(C(=O)c2ccc(C3CCCCC3)cc2)CC1=O  hepatic clearance (liver microsome stability; human liver microsomes; 1 µM, without NADPH): 3.9 mL/min/kg
CNC(=O)c1ccc(-c2cnc3ncc(Cc4ccc5ncccc5c4)n3n2)cc1F  AUC(0-t) (human, healthy subjects, plasma; oral, 200 mg, covariate-adjusted geometric mean): 6620 ng·h/mL
C[Si](C)(C)O[Si](C)(C)O[Si](C)(C)O[Si](C)(C)O[Si](C)(C)C  hepatic biotransformation rate constant (IVIVE from S9; rainbow trout (Oncorhynchus mykiss)): 0.033 h⁻¹ and 0.026 h⁻¹ and 0.043 h⁻¹
CN(CCC#N)C(=O)c1ccc([C@H]2[C@@H](F)[C@@H](F)C[C@@H](F)[C@H]2F)cc1  hepatic clearance (liver microsome stability; rat liver microsomes; 1 µM): 15 mL/min/kg
CN(C(=O)n1cnc(-c2ccc[n+]([O-])c2)c1)[C@H]1CC[C@H](O)CC1  concentration (Wistar rat, pons; oral, 10 mg/kg of BIA 10-2474, 24 h, single dose): 9.6 ± 0.4 ng/g
CN1C(=O)[C@@H](NC(=O)c2nnc(Cc3ccccc3)[nH]2)COc2cccnc21  TEAE leading to permanent discontinuation (phase I single ascending dose; human, male and female; oral, 10 mg, fasted): 0%
O=C(Nc1nc2cccc(-c3ccc(CN4CCS(=O)(=O)CC4)cc3)n2n1)C1CC1  treatment-emergent adverse events (item: pain in extremity; human rheumatoid arthritis patients; oral, 300 mg once daily, 4 weeks, regardless of relatedness): 5%
C[C@]12CC[C@@H]3c4ccc(O)cc4CC[C@H]3[C@@H]1CCC2=O  milk fat partition ratio (cow whole milk; 2000 nM; baseline: milk fat over skim milk): 65.2
O=C(O)CNc1ncccn1  Kd (USP3 ZnF-UBD domain): 855 µM
CC[C@@H]1CN(C(=O)NCC(F)(F)F)C[C@@H]1c1cnc2cnc3[nH]ccc3n12  Vp/F (population PK model; healthy, RA and CD subjects, plasma; oral, immediate-release formulation): 66.3 L
CC(C)[C@H](NC(=O)[C@@H](NC(=O)CCCc1cn(CC(O)CN2CCN(CC(=O)O)CCN(CC(=O)O)CCN(CC(=O)O)CC2)nn1)[C@@H](C)O)C(=O)N[C@@H](CCCNC(=N)N)C(=O)N[C@H](C(=O)N[C@@H](CO)C(=O)N[C@@H](C)C(=O)N[C@@H](CC(=O)O)C(=O)O)[C@@H](C)O (stereo partly shown)  volume of distribution (healthy male humans, plasma; intravenous bolus, 0.08 mmol/kg): 0.237 ± 0.0479 L/kg
Cn1ncnc1[C@H]1c2n[nH]c(=O)c3cc(F)cc(c23)N[C@@H]1c1ccc(F)cc1  AUC(0-8h) (human patients, plasma; oral, 600 µg/m2 twice daily day 1, day 5, dose level DL3, median, added: temozolomide 20 mg/m2 daily days 2-6): 67.2 ng·h/mL
O=C(Nc1ccc(OC(F)(F)Cl)cc1)c1cnc(N2CC[C@@H](O)C2)c(-c2ccn[nH]2)c1  grade ≥3 event rate (per treatment cycle, item: lipase increase; human patients; oral, dose not given, 28 day cycle): 0.3%
CN1CCN(C(=O)c2ccc([C@H]3[C@@H](F)[C@@H](F)C[C@@H](F)[C@H]3F)cc2)CC1=O  hepatic clearance (liver microsome stability; mouse liver microsomes; 1 µM): 14 mL/min/kg
Cc1cn(C(=O)c2c(-c3c(Cl)cc(Cl)cc3Cl)noc2C(C)(C)F)c2cccc(/C=C/C(=O)O)c12  AUC(0-8h) (human patients; 1000 mg bid, cycle 8 day 1): 242000 ng·h/mL
CN1CCN(C(=O)c2ccc([C@H]3[C@@H](F)[C@@H](F)C[C@@H](F)[C@H]3F)cc2)CC1  hepatic clearance (liver microsome stability; mouse liver microsomes; 1 µM): 48 mL/min/kg
O=C(O)CCCOc1ccc([18F])cc1-c1cc(-c2ccccc2C(F)(F)F)n(-c2ccccc2)n1  unchanged fraction of radioactivity (radio-TLC; ddY mice male, heart; intravenous, 37 MBq, 30 min): 95.1 ± 2.4%
CCCOc1ccc(NC(=O)CN2CCN(C)CC2)cc1-c1nc(CC)c(CC)c(=O)[nH]1  maximal systolic BP decrease difference (least-squares mean difference; healthy Chinese men; 10 mg, supine or semi-supine, added: alcohol 0.5 g/kg; baseline: compound plus placebo): -2.31 mmHg
C=CC(=O)NC1CCN(c2ncc3ncnc(Nc4ccc(Oc5ccc6c(c5)ncn6C)c(C)c4)c3n2)CC1  participants with back pain TEAE (healthy male humans; oral, 240 mg): 6.3%
O=C(COc1ccc(Cl)cc1)NC12CC(c3nnc([C@H]4C[C@@H](OC(F)(F)F)C4)o3)(C1)C2  participants with headache (human both sexes; oral, 100 mg once daily, 14 days): 42.9%
COc1cc(Nc2ncc3c(n2)-c2ccc(Cl)cc2C(c2c(F)cccc2OC)=NC3)ccc1C(=O)O  decreased neutrophil count incidence (patients; oral, dose not given, grade 3, any attribution, added: pembrolizumab): 13%
O=C(Cc1cccnc1)Nc1ccc([C@H]2[C@@H](F)[C@@H](F)C[C@@H](F)[C@H]2F)cc1  hepatic clearance (cryopreserved rat hepatocytes; 1 µM): 20 mL/min/kg
CCN1/C(=C/C(C)=O)Sc2ccc(F)cc21  QT interval (cynomolgus monkey; oral, 10 mg/kg, 1 h post-dose): 240 ± 22 ms
COc1ccc2[nH]c([S+]([O-])Cc3ncc(C)c(OC)c3C)nc2c1 (stereo not shown)  AUC(0-inf) (healthy Chinese volunteers, plasma; oral, 20 mg, enteric-coated capsules, CYP2C19 intermediate metabolizers): 804 ± 532 ng·h/mL
COCCC(=O)Nc1ccc(C2CCCCC2)cc1  hepatic clearance (hepatocyte stability; cryopreserved rat hepatocytes; 1 µM): 45 mL/min/kg
COc1ccc2c(c1)CN(C(=O)CCN1CCC(Cc3ccccc3)CC1)CC[S@@+]2[O-]  PQ interval (telemetry; conscious male beagle dogs; intravenous, 4 mg/kg, 0.5 h): 82 ± 6 ms
Cc1cc(-c2nnc(N)nc2-c2ccc(F)cc2)cc(Cl)n1  incidence of treatment-related AE (item: decreased appetite, any grade; IO-naive patients with other tumours; oral, 100 mg once daily): 26.3%
C=CCN1CC(=O)N2[C@@H](Cc3ccc(O)cc3F)C(=O)N(Cc3cccc(N4CC(N5CCN(CC)CC5)C4)n3)C[C@@H]2N1C(=O)NCc1ccccc1  treatment-related decreased appetite (advanced solid tumour patients; oral, 20 mg twice daily, grade ≥3, dose-escalation): 0%
Cc1ccc([C@@H]2O[C@H](CO)[C@@H](O)[C@H](O)[C@H]2O)cc1Cc1ccc(-c2ccc(F)cc2)s1  urinary phosphate excretion change (item: inorganic phosphorus; Japanese type 2 diabetes patients; 200 mg, day 6, 24 h urine collection; baseline: baseline): 58.7 mg
COc1ccnc(C(=O)NCC(=O)O)c1O  KFoc (soil adsorption; clay soil; pH 7.6, organic carbon 1.7 %): 364 mL/g
C[C@@H](Nc1cc(F)cc(F)c1)c1cc(C(=O)N(C)C)cc2c(=O)cc(N3CCOCC3)oc12  related serious adverse events (item: Dehydration; advanced solid tumour patients; oral, dose not given, dose finding): 0%
O=C(O)CCC(=O)O.[2H]C([2H])([2H])Oc1cc(C)c2[nH]ccc2c1CN1CC[C@@H](C2CC2)C[C@H]1c1ccc(C(=O)O)cc1  Tmax (LC-MS/MS, median; human, plasma; 100 mg, single dose, fasting): 4 h
N#Cc1ccc2c(c1)[C@H]1CCCN(C(=O)c3ccc4[nH]cnc4c3)[C@H]1C2  androstenedione level (human, male; 10 mg, day 7): 6.9 nmol/L
O=C(c1ccc(F)cc1)C1CCN(CCn2c(=O)[nH]c3ccccc3c2=O)CC1  hepatic clearance (mouse liver microsomes): 65.4 mL/min/kg
CCCCCNC(=O)N1CCC(CN(Cc2ccc(Cl)cc2)Cc2ccc([N+](=O)[O-])s2)C1 (stereo not shown)  blood cell fraction (item: EO%; C57BL/6 mouse, blood; 100 mg/kg twice daily, 7 days): 2.6 ± 0.7%
CCO[C@H]1CCN(Cc2c(OC)cc(C)c3[nH]ccc23)[C@H](c2ccc(C(=O)O)cc2)C1  incidence of cough (PNH patients, active haemolysis; oral, 25 mg, 4 weeks, treatment): 28.6%
COc1cc2c(Nc3ccc(Cl)c(Cl)c3F)ncnc2cc1OC[C@@H]1C[C@@H]2CN(C)C[C@@H]2C1  unbound brain concentration (FVB Mdr1a/b(-/-) Bcrp1(-/-) mouse; oral, 70 mg/kg, 2 h): 10.9 ng/g
CC(C)C[C@H](NC(=O)C[C@H](O)[C@H](CC(C)C)NC(=O)[C@H](Cc1c[nH]cn1)NC(=O)CNC(=O)[C@@H](NC(=O)[C@H](C)NC(=O)[C@H](Cc1c[nH]c2ccccc12)NC(=O)[C@H](CCC(N)=O)NC(=O)[C@@H](Cc1ccccc1)NC(=O)COCCOCCNC(=O)CCC(C(=O)O)N1CCN(CC(=O)O)CCN(CC(=O)O)CC1)C(C)C)C(N)=O (stereo partly shown) [lutetium-177 labelled]  tissue uptake (female BALB/c nu/nu mice, spleen; intravenous, 50 pmol, 1 h): 0.28 ± 0.06 %ID/g
CC[C@@H]([C@H](C)O)n1ncn(-c2ccc(N3CCN(c4ccc(OC[C@@H]5CO[C@@](Cn6cncn6)(c6ccc(F)cc6F)C5)cc4)CC3)cc2)c1=O  stability relative error (rat plasma; 1600 ng/mL, 21 days, -80 °C; baseline: nominal concentration): -9.6%
CCc1cc(C(=O)NC)c2nccc(N3CCc4c(cc(Cn5ccnc5)cc4-c4cn(C)nc4C(F)(F)F)C3=O)c2c1  blood CH change (Sprague Dawley rats; oral, 100 mg/kg twice daily, 7 days; baseline: vehicle): 0.86%
C[C@H]1CN(C(=O)CC#N)[C@]12CCN(c1ncnc3[nH]ccc13)C2  subjects with Paraesthesia (healthy human; oral, 12 mg single): 0%
O=C(O)CCn1cnc2ccccc21  Kd (USP3 ZnF-UBD domain): > 1000 µM
NCCONC(=O)[C@@H]1CC[C@@H]2CN1C(=O)N2OS(=O)(=O)O  adverse event incidence (healthy Chinese men; intravenous, 1 g, treatment-related): 37.5%
Cc1cnc(N2CC3(CCOCC3)C2)c(C(=O)Nc2ccc(C(=O)N3CCc4cc(C(=O)Nc5c(C)cccc5F)sc4-c4ccccc43)cc2)c1  fu (dog plasma): 0.01
NC(=O)CCNC(=O)c1ccc(C2CCCCC2)cc1  hepatic clearance (liver microsome stability; dog liver microsomes; 1 µM): 18 mL/min/kg
O=C([O-])CN1CCN(CC(=O)[O-])CCN([C@H](CO)[C@H](O)CO)CCN(CC(=O)[O-])CC1.[Gd+3] (racemic)  Gd concentration (ICP-MS; rat, femur diaphysis; intravenous, 0.6 mmol Gd/kg, 1 week): 1 nmol/g
NC(=O)CCNC(=O)c1ccc([C@H]2[C@@H](F)[C@@H](F)C[C@@H](F)[C@H]2F)cc1  hepatic clearance (hepatocyte stability; cryopreserved human hepatocytes; 1 µM): 6.2 mL/min/kg
Cl.[2H]C([2H])([2H])CC(=O)c1cnc(NC(=O)C2CC2)cc1Nc1cccc(-c2ncn(C([2H])([2H])[2H])n2)c1OC  elimination rate constant (geometric mean; human; oral, 20 mg once daily, day 7, fasted, liquid, multiple dose): 2.75e-05 s⁻¹
CC(C)Cn1cnc2c(N)nc3ccccc3c21  remaining compound (CD-1 mice, liver microsomes; 1 µM, 60 min): 10%
Cn1cc(Nc2nccc(-c3ccc4c(c3)CN(C3COC3)CC[C@H]4NC(=O)c3cn(C(C)(C)C)nn3)n2)cn1  CD3+ T cell count change (human, whole blood; 300 mg twice daily, day 14; baseline: pre-dose baseline): -5.88%
NC(=O)c1[nH]cnc1N  AUC(0-8h) (human patients, plasma; IV infusion over 1 h, 1000 mg/m^2 DTIC, cycle 2 day 1, staggered with co-drug): 31600 ng·h/mL
C[C@@H](c1nc(-c2ccc(C#N)cc2)cs1)[C@](O)(Cn1cncn1)c1cc(F)ccc1F  TEAE incidence (item: infections and infestations; healthy human; oral, 200 mg, 13 days, study): 5.6%
